Measurements of several laboratories.
Numbered parts are unrelated; each lists some results of a single study.

Series 1
Target: Histone acetyltransferase KAT6A, winged helix 1, GST fusion (KAT6A, Homo sapiens, UniProt Q92794, residues 1-85)
Method: protein binding microarray
Form: double-stranded DNA, one strand shown
Sample: in vitro
Tested at: not given
Notes: 8-mer, flanks averaged, mean of 2 arrays, mostly near background
Relative to: not given
Direction: higher = stronger binding
Endpoint: E-score
Residues (chain): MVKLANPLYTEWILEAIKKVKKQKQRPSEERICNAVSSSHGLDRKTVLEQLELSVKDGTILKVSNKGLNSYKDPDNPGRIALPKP
GAAAGCTC: -0.143
CAGTTATC: -0.11
GGGCTAAC: 0.00218
AGCTATTG: -0.145
GACTCCCC: 0.0255
CTATCGCC: 0.0412

Series 2
Target: Sal-like protein 4, full length isoform A (SALL4, Homo sapiens, UniProt Q9UJQ4, residues 1-1053)
Sequence of UniProt Q9UJQ4 (whole entry, looked up): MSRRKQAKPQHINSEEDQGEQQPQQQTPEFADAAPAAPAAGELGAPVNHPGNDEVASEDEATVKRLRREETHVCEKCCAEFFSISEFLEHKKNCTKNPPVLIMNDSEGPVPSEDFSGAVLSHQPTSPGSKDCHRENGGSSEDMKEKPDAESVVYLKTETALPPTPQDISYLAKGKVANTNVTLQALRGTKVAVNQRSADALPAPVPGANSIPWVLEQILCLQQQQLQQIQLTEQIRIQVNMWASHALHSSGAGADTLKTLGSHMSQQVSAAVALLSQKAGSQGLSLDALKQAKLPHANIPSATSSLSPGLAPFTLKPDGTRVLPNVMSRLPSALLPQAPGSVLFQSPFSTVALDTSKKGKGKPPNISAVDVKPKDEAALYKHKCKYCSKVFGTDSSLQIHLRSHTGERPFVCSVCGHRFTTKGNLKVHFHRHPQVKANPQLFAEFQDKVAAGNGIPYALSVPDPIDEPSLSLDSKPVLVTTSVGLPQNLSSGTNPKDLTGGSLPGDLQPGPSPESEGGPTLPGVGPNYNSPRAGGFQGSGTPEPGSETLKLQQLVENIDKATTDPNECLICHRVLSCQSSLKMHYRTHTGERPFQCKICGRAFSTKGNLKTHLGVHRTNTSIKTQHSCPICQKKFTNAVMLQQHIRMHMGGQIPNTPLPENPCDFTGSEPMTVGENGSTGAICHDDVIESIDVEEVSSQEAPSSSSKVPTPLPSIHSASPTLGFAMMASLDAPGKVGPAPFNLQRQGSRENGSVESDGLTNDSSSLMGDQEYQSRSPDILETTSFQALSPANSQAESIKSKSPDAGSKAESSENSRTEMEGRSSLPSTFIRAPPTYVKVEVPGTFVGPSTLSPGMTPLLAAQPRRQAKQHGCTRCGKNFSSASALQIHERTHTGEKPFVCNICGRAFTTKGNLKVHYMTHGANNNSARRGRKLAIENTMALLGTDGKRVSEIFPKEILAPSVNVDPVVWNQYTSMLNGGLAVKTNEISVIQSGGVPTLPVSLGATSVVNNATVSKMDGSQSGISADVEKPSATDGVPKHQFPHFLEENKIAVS
Method: universal PBM
Form: double-stranded DNA, one strand shown
Sample: in vitro
Tested at: 600 nM
Notes: 8-mer, flanks averaged, mean of replicates
Direction: higher = stronger binding
Endpoint: E-score
GGCCTCTA: -0.254
ATTGTGTG: 0.0414
AAGGGCGT: -0.186
AGGATGTA: 0.128
TCGACTAA: 0.0923
GGGCGGGA: -0.131
TAGCACGA: -0.0435
GGGTTGCA: -0.0777
CCTTAGTA: -0.008

Series 3
Target: Centromere-binding protein 1, full length, N-terminal tag (CBF1, Saccharomyces cerevisiae, UniProt P17106, residues 1-351)
Sequence of UniProt P17106 (whole entry, looked up): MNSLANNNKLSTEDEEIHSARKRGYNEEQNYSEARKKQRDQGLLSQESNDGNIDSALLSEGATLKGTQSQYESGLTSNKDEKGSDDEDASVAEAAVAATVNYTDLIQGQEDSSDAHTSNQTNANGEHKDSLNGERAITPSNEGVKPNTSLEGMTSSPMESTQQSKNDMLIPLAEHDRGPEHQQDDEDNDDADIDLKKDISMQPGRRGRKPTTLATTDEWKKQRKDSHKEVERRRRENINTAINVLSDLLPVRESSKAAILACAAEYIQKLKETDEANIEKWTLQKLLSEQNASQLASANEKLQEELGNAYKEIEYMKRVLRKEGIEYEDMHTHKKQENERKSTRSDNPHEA
Method: protein-binding microarray
Form: double-stranded DNA, one strand shown
Sample: in vitro
Tested at: 0.8 µM
Notes: whole 60-bp probe, no competitor
Direction: higher = stronger binding
Endpoint: fluorescence intensity
CTATTAAACACTAACCACGTGCAACCAACAGAATTCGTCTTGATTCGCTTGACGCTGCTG: 5590 a.u.
CTAACTTTTCCTAACGGTGTGACCATATTGTACTTCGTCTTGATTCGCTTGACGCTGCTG: 792 a.u.
CTACCATTAAATTGTCACCTTACTCTCGGAAAATTCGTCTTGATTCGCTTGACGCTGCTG: 630 a.u.
CTAGCAAATGCATTAGAGGTGGCGTTTTCCTCTTTCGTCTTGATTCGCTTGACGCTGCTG: 486 a.u.
CCTAACTACTATACCCTTACATCATAGCTTCGTACAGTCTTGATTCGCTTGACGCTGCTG: 539 a.u.
GAAGTTAGACAAAATCACGCTTTTTCATTGGGATAGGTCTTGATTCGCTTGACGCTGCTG: 705 a.u.

Further values, each from its own experiment
PhoQ, residues 284 288 289 292 302 303 AMDMFI — fold induction (PhoP, residues 12 14 15 18 19 QWHVF (Escherichia coli, UniProt P23836); Sort-seq, measured: YFP reporter; E. coli; PhoQ-PhoP variant library, added: 10 µM Mg2+; relative to: high Mg2+ state, higher = stronger signaling): 1.87

Repeated from above (series 1):
GACTCCCC: 0.0255
GGGCTAAC: 0.00218
GAAAGCTC: -0.143
CAGTTATC: -0.11
